Experimental data from different studies.
Each numbered part is a random draw from the data of one study; scales do not carry over between parts.

Sample 1
Target: Prothrombin, mature alpha-thrombin (F2, Homo sapiens, UniProt P00734)
Technique: aptamer microarray, sandwich
Form: DNA with 2'F-ANA
Sample: in vitro
Tested at: 200 nM
Notes: whole 15-mer aptamer, many near background
Together with: Cy3 exosite-II aptamer, 400 nM
Reading: higher = stronger binding
Sequence: GGTTGGTGTGGTTGG
Modification | mean fluorescence intensity [a.u.]
2'F-ANA at 1 2 7 12 14 | 80.6
2'F-ANA at 3 4 5 7 8 15 | 116
2'F-ANA at 1 3 4 5 8 9 10 11 12 13 14 | 57.7
2'F-ANA at 2 6 7 8 9 10 11 15 | 110
2'F-ANA at 1 2 7 8 9 12 14 15 | 74.7
2'F-ANA at 1 2 3 9 11 13 14 15 | 66.7
2'F-ANA at 1 2 6 8 10 12 13 14 | 52.1
2'F-ANA at 1 2 6 7 10 11 13 | 47.5
2'F-ANA at 1 2 9 10 11 13 14 | 45
2'F-ANA at 1 4 6 9 11 13 | 68.7
2'F-ANA at 2 4 6 7 9 10 11 12 13 | 80.4
2'F-ANA at 1 10 11 14 15 | 49.1
2'F-ANA at 1 2 3 6 8 9 10 14 | 79.3
2'F-ANA at 1 3 4 5 7 10 11 12 15 | 77.7
2'F-ANA at 2 3 7 8 9 10 11 13 15 | 344
2'F-ANA at 1 4 8 9 10 11 15 | 52.6
2'F-ANA at 1 2 3 4 5 6 9 10 11 12 15 | 48.5
2'F-ANA at 1 2 6 9 14 | 79
2'F-ANA at 2 3 4 8 9 10 13 | 289
2'F-ANA at 1 4 8 10 13 14 15 | 45.9
2'F-ANA at 1 2 3 5 6 7 9 11 14 | 45.6

Sample 2
Target: Centromere-binding protein 1, full length, N-terminal tag (CBF1, Saccharomyces cerevisiae, UniProt P17106, residues 1-351)
Sequence of UniProt P17106 (whole entry, looked up): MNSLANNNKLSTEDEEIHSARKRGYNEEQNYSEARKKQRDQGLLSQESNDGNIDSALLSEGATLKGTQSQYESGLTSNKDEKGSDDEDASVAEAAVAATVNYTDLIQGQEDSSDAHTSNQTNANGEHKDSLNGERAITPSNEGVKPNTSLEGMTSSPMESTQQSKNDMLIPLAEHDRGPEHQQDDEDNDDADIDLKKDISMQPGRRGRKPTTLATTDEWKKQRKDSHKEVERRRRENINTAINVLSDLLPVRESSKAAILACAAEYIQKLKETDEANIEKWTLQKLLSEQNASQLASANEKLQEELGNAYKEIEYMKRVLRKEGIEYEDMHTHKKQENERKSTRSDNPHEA
Technique: protein-binding microarray
Form: double-stranded DNA, one strand shown
Sample: in vitro
Tested at: 0.8 µM
Notes: whole 60-bp probe, no competitor
Reading: higher = stronger binding
Shared flanks, not repeated: … GTCTTGATTCGCTTGACGCTGCTG
Sequence | fluorescence intensity [a.u.]
GAATTATATTGCAAGCATCAGATTAATCATTCATAG | 518
GAATGATCTCATAATCACGTCCCATTCCCGGCTTAG | 557
CTAGGATATTCACCACACCTGATTGGGAAGACTTTC | 691
CTATCCTATTCTTATCACGTTATTGTTTACTTATTC | 2190
GAATGTCGTGAATATGGCACCACGTTGGTTACTTAG | 637
CTAGACATGGTTTTTGCCGTGACCGTGGATCTCTTC | 611
CCTAACTACTATACAATGGTGACATAGCTTCGTACA | 493
CCTAACTACTATATTCTCGTGTGATAGCTTCGTACA | 533
GAAGGGCAGGCCCGTAACGTGTTTATTGATAGGTAG | 550
CTACGGAAAAACCTCCACGTGTTAGGTTATTCCTTC | 6950
CTAAAGAATATAGTAAACGTGTAGCAGAGTCATTTC | 614
GAAAGATGATGATTTGACATGATGTTTCAATCATAG | 522
CTACATCATCAGAGCCACGCAACACGGTAATCATTC | 534
GAAAAGCATCTACATCACGAATATACGGGATATTAG | 544
CTAGTTTGTCAAAAGCACGAGCGCGATGAGAATTTC | 644
GAAGAAGAAAAAATGAAGGTGACGCAAAAAAGGTAG | 580
CCTAACTACTATAAGTGCGTGCGATAGCTTCGTACA | 516
GAATAAACCTCCCACCACCTGATAATCTGTATGTAG | 653
CTATTAAACACTAACCACGTGCAACCAACAGAATTC | 5590
CTAGCGGCGGAAAAAAACGTGACGCCTTTTAGCTTC | 3470
TGTACGAAGCTATACATCATGAATATAGTAGTTAGG | 495
CTATTGGTCACGTGACACGCGATCAACTACATTTTC | 45900

Sample 3
Target: Ras GTPase-activating protein-binding protein 1, full length (G3BP1, Homo sapiens, UniProt Q13283)
Sequence of UniProt Q13283 (whole entry, looked up): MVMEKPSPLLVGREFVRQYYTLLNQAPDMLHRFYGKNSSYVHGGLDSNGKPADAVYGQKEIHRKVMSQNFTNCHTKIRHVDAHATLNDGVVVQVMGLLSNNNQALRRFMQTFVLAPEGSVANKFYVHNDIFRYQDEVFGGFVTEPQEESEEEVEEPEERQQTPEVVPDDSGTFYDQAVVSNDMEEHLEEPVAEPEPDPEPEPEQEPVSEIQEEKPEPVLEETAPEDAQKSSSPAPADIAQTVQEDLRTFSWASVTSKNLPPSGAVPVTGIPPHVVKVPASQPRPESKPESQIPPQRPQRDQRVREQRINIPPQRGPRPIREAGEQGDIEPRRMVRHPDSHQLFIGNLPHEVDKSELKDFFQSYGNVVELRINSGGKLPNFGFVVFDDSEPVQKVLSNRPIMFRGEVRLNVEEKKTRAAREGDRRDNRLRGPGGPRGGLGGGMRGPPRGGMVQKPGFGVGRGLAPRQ
Technique: RNA Bind-n-Seq
Form: RNA
Sample: in vitro
Tested at: 200 nM
Notes: whole 134-nt RNA, ends assumed
Together with: 150 mM KCl
Baseline: input library
Reading: higher = stronger binding
Shared flanks, not repeated: GGGAGUUCUACAGUCCGACGAUC … UGGAAUUCUCGGGUGUCAAGG
Sequence | log2 enrichment
GUCCUGUGCUACACAUCGUAUGUACCGAAUCGGGUUUUUGGGAAAAAGGGAAAAAGGGAAAGUAUUAUGUUACGCCGUUCGGAUCUGCAC | -0.549
CAAGUCCUGUGCUACACAUCGUAUGUACCGAAUCGGGAAAGGGAAAGGGAAAGGGAAAGUAUUAUGUUACGCCGUUCGGAUCUGCACUUC | 0.424
CAAGUCCUGUGCUACACAUCGUAUGUACCGAAUCGGAAAGGAAAAAGGUUUUUGGAAAGUAUUAUGUUACGCCGUUCGGAUCUGCACUUC | -1.33
GCAGGAAGUAAAAACAAAUUGAAAUGCUUCGGAUAGUGGCAGGGGUGGGGGUUGCUAAGGAAAGGGUGGGAUGGGAGUGGGUAAAGAGUU | 1.07
UUUCUGCAGCAUUAGAGAAGGCCCAAGAAGAAGCCCGUCAGCAGCAAGAAACAUUAGCCAUUCAAGUAAGCAAUGGAUGAUGAAUUAGAG | -1.2
UAACUUUAGAGGAGGAUCUGAUGGAUAUGGCAGUGGACGUGGAUUUGGGGAUGGCUAUAAUGGGUAUGGAGGAGGACCUGGAGGUGGGAA | 0.381
GCAGGAAGUAGAAACAAAUGGAAAUGCUUCGGAUAGUGGCAGGGGUGGGGGUUGCUAAGGAAAGGGUGGGAUGGGAGUGGGUAAAGAGUU | 1.3
CAAGUCCUGUGCUACACAUCGUAUGUACCGAAUCGGGAAAGGGAGGGUUUUUGGGAAAGUAUUAUGUUACGCCGUUCGGAUCUGCACUUC | 0.539
UCACUUUAGAGGAGGAUCUGAUGGAUAUGGCAGUGGACGUGGAUUUGGGGAUGGCUAUAAUGGGUAUGGAGGAGGACCUGGAGGUGGCAA | 0.321
UCAAGUCCUGUGCUACACAUCGUAUGUACCGAAUCGGAAAGGUGGUUUUUUUGGAAAGUAUUAUGUUACGCCGUUCGGAUCUGCACUUCC | -1.14

Sample 4
Target: Histone acetyltransferase KAT6A, winged helix 1, GST fusion (KAT6A, Homo sapiens, UniProt Q92794, residues 1-85)
Technique: protein binding microarray
Form: double-stranded DNA, one strand shown
Sample: in vitro
Tested at: not given
Notes: 8-mer, flanks averaged, mean of 2 arrays, mostly near background
Baseline: not given
Reading: higher = stronger binding
Target sequence (chain): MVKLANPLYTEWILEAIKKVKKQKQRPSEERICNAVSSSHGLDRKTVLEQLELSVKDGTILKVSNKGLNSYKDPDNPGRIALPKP
Sequence | E-score
ATGTTTAC | -0.06
CAGGAGGC | -0.0468
AATATAGT | -0.0286
GGCTATCA | 0.0719
AGCTCTAA | -0.129
CGCGTAGA | 0.232
GATAAGAC | -0.0643
TCGAACCA | -0.0862
GCCTCAGC | 0.0258
ACCGTTAC | 0.0359
CAATTCAC | -0.0281
AACGCGGT | 0.332
CAGATTTA | -0.153
CCGGTTCC | 0.303
GAGAGCTC | -0.04
GATTGGCA | -0.211
AGCCGGGC | 0.264
GTCGACAA | -0.0323
CGCAGTAG | 0.131
CTCCGAGC | 0.0521
GCCGCTCC | 0.416

Excerpt of the above (sample 1):
Modification | mean fluorescence intensity [a.u.]
2'F-ANA at 1 2 3 9 11 13 14 15 | 66.7
2'F-ANA at 1 2 6 8 10 12 13 14 | 52.1
2'F-ANA at 1 2 6 7 10 11 13 | 47.5
2'F-ANA at 1 2 9 10 11 13 14 | 45
2'F-ANA at 1 4 6 9 11 13 | 68.7
